Measured values gathered from unrelated publications.
Compare with care: the assays were run in different laboratories. ± gives the spread as reported.
UniProt P08173, sequence (whole entry, looked up): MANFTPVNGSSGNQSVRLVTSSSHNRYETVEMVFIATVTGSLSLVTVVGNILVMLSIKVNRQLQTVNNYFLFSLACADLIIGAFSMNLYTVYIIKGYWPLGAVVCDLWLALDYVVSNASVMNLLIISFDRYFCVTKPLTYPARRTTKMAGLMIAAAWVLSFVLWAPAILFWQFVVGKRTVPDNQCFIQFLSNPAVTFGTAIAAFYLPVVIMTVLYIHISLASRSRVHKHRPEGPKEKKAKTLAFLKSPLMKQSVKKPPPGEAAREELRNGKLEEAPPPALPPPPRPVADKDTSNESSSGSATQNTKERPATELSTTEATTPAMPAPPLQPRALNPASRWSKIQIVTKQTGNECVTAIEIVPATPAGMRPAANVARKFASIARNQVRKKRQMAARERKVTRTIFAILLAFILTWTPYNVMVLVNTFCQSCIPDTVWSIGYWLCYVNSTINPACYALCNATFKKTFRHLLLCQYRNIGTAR
UniProt Q9HC35, sequence (whole entry, looked up): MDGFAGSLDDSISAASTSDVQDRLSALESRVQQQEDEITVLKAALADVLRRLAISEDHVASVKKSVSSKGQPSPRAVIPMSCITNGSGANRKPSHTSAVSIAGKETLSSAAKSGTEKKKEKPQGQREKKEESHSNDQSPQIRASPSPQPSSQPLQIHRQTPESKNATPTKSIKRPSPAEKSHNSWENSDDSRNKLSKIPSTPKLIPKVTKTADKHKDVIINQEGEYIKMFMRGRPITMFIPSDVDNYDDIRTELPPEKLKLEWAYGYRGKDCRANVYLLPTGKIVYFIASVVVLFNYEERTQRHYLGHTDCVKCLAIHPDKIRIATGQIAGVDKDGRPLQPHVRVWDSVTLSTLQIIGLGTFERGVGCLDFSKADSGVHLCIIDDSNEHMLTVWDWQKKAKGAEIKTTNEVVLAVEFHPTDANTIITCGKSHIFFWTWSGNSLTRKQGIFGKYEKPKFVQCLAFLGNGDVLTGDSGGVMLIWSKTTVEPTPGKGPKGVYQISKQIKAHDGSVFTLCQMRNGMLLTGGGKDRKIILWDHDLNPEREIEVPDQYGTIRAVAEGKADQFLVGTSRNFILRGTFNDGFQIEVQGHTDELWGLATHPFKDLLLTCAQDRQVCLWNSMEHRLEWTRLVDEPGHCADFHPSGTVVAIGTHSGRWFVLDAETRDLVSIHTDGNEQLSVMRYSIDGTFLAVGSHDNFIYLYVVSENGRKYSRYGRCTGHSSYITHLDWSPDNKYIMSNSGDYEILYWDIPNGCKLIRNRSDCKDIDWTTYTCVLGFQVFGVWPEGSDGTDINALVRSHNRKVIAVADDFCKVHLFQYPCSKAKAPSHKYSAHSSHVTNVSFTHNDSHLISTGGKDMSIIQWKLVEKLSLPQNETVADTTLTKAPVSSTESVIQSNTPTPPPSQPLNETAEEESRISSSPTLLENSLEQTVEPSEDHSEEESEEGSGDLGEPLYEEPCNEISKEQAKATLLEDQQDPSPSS
UniProt Q9UM73, sequence (whole entry, looked up): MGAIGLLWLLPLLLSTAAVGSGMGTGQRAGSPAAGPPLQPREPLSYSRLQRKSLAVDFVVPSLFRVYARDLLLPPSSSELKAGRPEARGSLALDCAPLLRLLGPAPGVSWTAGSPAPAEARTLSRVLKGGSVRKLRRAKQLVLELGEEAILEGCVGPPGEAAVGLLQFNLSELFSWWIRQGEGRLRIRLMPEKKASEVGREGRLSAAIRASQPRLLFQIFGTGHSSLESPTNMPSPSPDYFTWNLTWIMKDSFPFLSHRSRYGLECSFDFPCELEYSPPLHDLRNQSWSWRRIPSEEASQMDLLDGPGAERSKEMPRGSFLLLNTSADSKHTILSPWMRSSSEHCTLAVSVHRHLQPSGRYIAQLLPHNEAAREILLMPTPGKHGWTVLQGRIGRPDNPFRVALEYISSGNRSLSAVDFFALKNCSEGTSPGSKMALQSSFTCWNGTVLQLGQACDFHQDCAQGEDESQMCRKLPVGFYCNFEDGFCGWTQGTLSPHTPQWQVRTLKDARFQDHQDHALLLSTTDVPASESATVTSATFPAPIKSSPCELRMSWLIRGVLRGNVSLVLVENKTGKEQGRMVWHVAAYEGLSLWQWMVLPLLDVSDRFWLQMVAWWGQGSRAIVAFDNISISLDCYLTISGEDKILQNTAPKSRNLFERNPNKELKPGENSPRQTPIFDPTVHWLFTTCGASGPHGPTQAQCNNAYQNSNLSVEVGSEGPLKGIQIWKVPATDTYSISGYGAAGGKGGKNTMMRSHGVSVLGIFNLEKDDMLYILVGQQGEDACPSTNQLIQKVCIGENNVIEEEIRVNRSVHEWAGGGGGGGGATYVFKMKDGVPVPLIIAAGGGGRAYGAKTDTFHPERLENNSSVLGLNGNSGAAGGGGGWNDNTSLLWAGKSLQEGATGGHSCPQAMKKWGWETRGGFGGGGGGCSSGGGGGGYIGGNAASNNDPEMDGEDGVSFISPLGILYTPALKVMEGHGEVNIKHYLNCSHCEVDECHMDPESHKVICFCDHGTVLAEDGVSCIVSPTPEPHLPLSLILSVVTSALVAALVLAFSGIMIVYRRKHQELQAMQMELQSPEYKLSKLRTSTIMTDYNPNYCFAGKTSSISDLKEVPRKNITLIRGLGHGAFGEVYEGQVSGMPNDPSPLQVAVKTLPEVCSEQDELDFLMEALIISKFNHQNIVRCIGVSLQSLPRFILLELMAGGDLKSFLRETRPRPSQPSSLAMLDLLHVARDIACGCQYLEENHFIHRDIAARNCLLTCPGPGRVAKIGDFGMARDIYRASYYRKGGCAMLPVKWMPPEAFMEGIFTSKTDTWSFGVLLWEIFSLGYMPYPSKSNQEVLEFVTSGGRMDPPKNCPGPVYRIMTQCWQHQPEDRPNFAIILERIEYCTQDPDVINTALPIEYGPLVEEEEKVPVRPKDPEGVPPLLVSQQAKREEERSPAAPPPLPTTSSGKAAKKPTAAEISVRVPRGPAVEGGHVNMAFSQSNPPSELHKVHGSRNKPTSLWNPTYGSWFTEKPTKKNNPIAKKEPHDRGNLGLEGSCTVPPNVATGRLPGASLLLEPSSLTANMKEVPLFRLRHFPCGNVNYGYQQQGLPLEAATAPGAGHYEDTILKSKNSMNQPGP

CO[C@@H]1[C@H](O)[C@@H](COP(=O)(O)OP(=O)([O-])C(Cl)(Cl)P(=O)(O)OP(=O)(O)OC[C@H]2O[C@@H](n3cnc4c(=O)[nH]c(N)nc43)[C@H](O)[C@@H]2O)O[C@H]1n1c[n+](C)c2c(O)nc(N)nc21
IC50 (cap-dependent translation, inhibitor; rabbit reticulocyte lysate; preincubated 60 min in lysate): 1.23 ± 0.11 µM

CC[C@@](C)(NC(=O)[C@H](C)NC(=O)[C@H]1C[C@@H](O)CN1C(=O)C(C)(C)NC(=O)[C@H](Cc1c[nH]c2ccccc12)NC(=O)[C@H]1CCCN1C(=O)C(C)(C)NC(=O)CNC(=O)C(C)(C)NC(=O)C(C)(C)NC(=O)C(C)(C)NC(=O)[C@](C)(N)CC)C(=O)NCCCC(=O)N[C@@H](CC(C)C)C(=O)N[C@](C)(CC)C(=O)NC(C)(C)C(=O)N[C@](C)(CC)C(=O)N[C@H](CO)Cc1ccccc1
Kd (binding, ITC; 10 to 30% methanol; 2 °C, with: POPG): 7.7 µM

COc1cc(N2CCN(C(=O)CN)CC2)ccc1Nc1ncc(Cl)c(Nc2ccccc2P(C)(C)=O)n1
DC50 (ALK tyrosine kinase receptor/Echinoderm microtubule-associated protein-like 4 (Homo sapiens, UniProt Q9HC35+Q9UM73); degrader): 0.142 µM

CCCCOc1ccc(C(=O)OCC[N+]2(C)CC=CCC2)cc1 (stereo not shown)
Kb (CHRM4 (Homo sapiens, UniProt P08173); inositol phosphate accumulation, antagonist, Schild analysis; CHO co-expressing G15; with: carbachol): 0.257 µM

COc1cccc(OC)c1OCCCn1cc(CCCNc2nc3c(c(=O)[nH]2)[n+](C)cn3C2OC(COP(=O)(O)OP(=O)([O-])OP(=O)(O)OCC3OC(n4cnc5c(=O)[nH]c(N)nc54)C(O)C3O)C(O)C2O)nn1 (stereo not shown)
IC50 (cap-dependent translation, inhibitor; rabbit reticulocyte lysate; with: ARCA-capped luciferase mRNA): 1.3 ± 0.23 µM

C[n+]1cn([C@@H]2O[C@H](COP(=O)(O)OP(=O)([O-])C(F)(F)P(=O)(O)O)[C@@H](O)[C@H]2O)c2nc(N)nc(O)c21
IC50 (cap-dependent translation, inhibitor; rabbit reticulocyte lysate; 60 min, 30 °C, no preincubation): 1.81 ± 0.13 µM

COc1ccc(CNc2nc3c(c(=O)[nH]2)[n+](C)cn3C2OC(COP(=O)(O)OP(=O)([O-])OP(=O)(O)OCC3OC(n4cnc5c(=O)[nH]c(N)nc54)C(O)C3O)C(O)C2O)cc1 (stereo not shown)
IC50 (cap-dependent translation, inhibitor; rabbit reticulocyte lysate; with: ARCA-capped luciferase mRNA): 0.89 ± 0.12 µM

COc1ccc(C(=O)Nc2cc(-c3ccc(I)cc3)no2)cc1 [iodine-125 labelled]
Kd (radioligand saturation binding; Parkinson's disease human brain homogenate): 0.0035 µM

C[n+]1cn(C2OC(COP(=O)(O)OP(=O)([O-])C(Cl)(Cl)P(=O)(O)OP(=O)(O)OCC3OC(n4cnc5c(=O)[nH]c(N)nc54)C(O)C3O)C(O)C2O)c2nc(N)nc(O)c21 (stereo not shown)
IC50 (cap-dependent translation, inhibitor; rabbit reticulocyte lysate; preincubated 60 min in lysate): 1.52 ± 0.1 µM

C[n+]1cn(C2OC(COP(=O)(O)OP(=O)([O-])OP(=O)(O)OCC3OC(n4cnc5c(=O)[nH]c(N)nc54)C(O)C3O)C(O)C2O)c2nc(NCc3ccc(Cl)cc3)[nH]c(=O)c21 (stereo not shown)
IC50 (cap-dependent translation, inhibitor; rabbit reticulocyte lysate; with: ARCA-capped luciferase mRNA): 0.98 ± 0.13 µM

A few entries again:
C[n+]1cn(C2OC(COP(=O)(O)OP(=O)([O-])OP(=O)(O)OCC3OC(n4cnc5c(=O)[nH]c(N)nc54)C(O)C3O)C(O)C2O)c2nc(NCc3ccc(Cl)cc3)[nH]c(=O)c21 (stereo not shown)
IC50 (cap-dependent translation, inhibitor; rabbit reticulocyte lysate; with: ARCA-capped luciferase mRNA): 0.98 ± 0.13 µM
